Published values of several laboratories.
Each numbered part is a random draw from the data of one study; scales do not carry over between parts.
UniProt Q15418, sequence (whole entry, looked up): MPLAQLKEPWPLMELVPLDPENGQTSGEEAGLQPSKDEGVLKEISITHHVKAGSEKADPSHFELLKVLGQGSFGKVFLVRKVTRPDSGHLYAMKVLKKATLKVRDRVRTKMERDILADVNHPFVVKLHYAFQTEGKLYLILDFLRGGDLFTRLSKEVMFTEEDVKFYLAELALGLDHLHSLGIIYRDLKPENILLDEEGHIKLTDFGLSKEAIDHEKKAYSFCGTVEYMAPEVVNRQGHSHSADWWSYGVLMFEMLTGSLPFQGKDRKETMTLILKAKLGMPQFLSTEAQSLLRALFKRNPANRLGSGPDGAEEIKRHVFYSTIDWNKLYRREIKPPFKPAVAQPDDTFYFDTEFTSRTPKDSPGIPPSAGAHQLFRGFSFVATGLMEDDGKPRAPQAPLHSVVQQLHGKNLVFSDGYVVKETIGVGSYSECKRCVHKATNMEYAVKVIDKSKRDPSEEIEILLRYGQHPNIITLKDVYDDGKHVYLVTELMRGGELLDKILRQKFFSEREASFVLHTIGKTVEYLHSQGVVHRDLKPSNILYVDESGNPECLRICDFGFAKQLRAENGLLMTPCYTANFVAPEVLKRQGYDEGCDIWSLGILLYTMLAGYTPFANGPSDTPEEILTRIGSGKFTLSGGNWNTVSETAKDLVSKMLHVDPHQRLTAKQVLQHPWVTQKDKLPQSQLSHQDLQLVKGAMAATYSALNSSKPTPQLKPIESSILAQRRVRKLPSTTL
UniProt P49761, sequence (whole entry, looked up): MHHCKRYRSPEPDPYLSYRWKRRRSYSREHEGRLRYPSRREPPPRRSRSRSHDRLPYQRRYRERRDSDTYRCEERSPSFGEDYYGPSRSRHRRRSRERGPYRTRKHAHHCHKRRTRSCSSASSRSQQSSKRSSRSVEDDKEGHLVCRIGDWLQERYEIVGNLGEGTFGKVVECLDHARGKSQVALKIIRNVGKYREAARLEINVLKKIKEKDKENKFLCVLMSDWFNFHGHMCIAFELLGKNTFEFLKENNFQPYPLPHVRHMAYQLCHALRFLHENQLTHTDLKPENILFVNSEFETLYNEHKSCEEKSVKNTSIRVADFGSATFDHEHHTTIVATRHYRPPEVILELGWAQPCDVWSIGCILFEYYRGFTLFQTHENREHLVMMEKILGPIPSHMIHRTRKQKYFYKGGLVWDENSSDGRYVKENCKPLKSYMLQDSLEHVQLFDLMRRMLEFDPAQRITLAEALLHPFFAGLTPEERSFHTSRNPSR
UniProt Q9P289, sequence (whole entry, looked up): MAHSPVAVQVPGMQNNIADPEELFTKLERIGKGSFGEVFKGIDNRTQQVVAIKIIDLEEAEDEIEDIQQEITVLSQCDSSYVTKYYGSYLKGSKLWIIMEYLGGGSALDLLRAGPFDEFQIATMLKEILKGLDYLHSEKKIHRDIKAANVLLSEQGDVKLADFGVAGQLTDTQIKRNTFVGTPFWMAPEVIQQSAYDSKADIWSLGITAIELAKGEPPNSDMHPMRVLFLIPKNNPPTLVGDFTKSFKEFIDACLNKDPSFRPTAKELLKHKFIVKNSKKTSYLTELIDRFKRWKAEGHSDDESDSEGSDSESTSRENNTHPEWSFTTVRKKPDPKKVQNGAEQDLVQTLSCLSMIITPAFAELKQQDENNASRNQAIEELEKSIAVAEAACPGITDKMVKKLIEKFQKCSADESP
UniProt O95747, sequence (whole entry, looked up): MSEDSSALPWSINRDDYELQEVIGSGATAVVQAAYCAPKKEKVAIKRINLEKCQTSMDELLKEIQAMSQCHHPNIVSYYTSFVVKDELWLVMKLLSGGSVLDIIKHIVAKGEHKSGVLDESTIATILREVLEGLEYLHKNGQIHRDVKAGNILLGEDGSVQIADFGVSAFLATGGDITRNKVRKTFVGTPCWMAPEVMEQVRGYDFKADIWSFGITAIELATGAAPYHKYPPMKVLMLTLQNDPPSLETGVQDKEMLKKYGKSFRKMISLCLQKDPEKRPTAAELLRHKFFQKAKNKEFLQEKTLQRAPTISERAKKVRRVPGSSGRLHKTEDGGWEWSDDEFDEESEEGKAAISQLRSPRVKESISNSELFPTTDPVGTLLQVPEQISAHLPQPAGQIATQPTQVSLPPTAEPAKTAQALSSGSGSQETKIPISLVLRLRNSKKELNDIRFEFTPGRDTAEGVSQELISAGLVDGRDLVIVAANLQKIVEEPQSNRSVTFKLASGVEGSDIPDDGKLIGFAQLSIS
UniProt P04629, sequence (whole entry, looked up): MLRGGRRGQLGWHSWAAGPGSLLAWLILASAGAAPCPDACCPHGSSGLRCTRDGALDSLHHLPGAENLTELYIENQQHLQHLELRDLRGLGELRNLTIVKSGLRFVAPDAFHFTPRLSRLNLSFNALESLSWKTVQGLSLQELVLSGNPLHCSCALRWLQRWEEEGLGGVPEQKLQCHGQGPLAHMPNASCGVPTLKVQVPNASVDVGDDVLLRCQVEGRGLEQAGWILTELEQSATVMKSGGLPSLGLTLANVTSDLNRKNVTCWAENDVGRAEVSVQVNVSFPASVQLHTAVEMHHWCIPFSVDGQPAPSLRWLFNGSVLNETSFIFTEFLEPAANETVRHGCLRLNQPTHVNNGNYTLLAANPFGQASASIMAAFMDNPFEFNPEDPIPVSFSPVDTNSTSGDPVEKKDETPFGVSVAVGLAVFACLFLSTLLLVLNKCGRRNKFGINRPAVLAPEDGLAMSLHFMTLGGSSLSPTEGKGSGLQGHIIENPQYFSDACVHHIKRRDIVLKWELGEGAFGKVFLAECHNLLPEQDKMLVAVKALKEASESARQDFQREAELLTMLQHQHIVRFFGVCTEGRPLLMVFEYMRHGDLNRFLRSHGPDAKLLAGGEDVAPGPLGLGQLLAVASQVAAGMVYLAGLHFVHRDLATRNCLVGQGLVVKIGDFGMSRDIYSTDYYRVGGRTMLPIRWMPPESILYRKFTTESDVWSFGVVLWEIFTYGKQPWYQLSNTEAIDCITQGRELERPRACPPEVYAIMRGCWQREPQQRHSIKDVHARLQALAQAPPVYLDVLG

Sample 1
Structure (SMILES): COc1ccc(-c2c(Nc3ccccn3)[nH]c3c(C4=CCCCC4)c(-c4ccccc4)nn3c2=O)cc1
Medium: plasma
Route: oral
technique	species	dose	time	notes	plasma concentration, geometric mean [ng/mL]
	human patients	400 mg once daily	3 h	cycle 1	3180
	cancer patients	400 mg	72 h post-dose	single dose	53.2
LC-MS/MS	human	200 mg twice daily	1 h	single dose	384
	cancer patients	50 mg	2 h post-dose	single dose	227
	cancer patients	50 mg	4 h post-dose	single dose	476
	cancer patients	200 mg	3 h post-dose	single dose	1140
LC-MS/MS	human	200 mg twice daily	0 h		11300

Sample 2
Structure (SMILES): CC(=O)Nc1c(C(C)=O)c(=O)n(C)c2nc(-c3ccc(Cl)cc3Cl)c(-c3ccc(Cl)cc3)cc12
Read-out: cell-free assay
Technique: competition with immobilised ligand
Concentration: 1 µM
target	remaining binding
Ribosomal protein S6 kinase alpha-1, C-terminal kinase domain (RPS6KA1, Homo sapiens, UniProt Q15418)	100%
Serine/threonine-protein kinase OSR1 (OXSR1, Homo sapiens, UniProt O95747)	93%
Tyrosine-protein kinase ABL1, non-phosphorylated (ABL1, Homo sapiens, UniProt P00519, Q252H)	100%
High affinity nerve growth factor receptor (NTRK1, Homo sapiens, UniProt P04629)	100%
Serine/threonine-protein kinase 26 (STK26, Homo sapiens, UniProt Q9P289)	87%
Dual specificity protein kinase CLK3 (CLK3, Homo sapiens, UniProt P49761)	100%

Sample 3
SMILES: CC(C)n1cnc(-c2ccc(F)cc2)c1-c1ncc(C(=O)Nc2ccc(N3CCN(C)CC3)cc2)[nH]1
Technique: phase 2a clinical trial
Species: patients with idiopathic pulmonary fibrosis
dose	notes	added	patients with AST increase
30 mg once daily	without standard of care		0%
60 mg once daily		standard of care	9.1%
30 mg once daily		standard of care	0%

Sample 4
Target: Mitogen-activated protein kinase 3 (MAPK3, Homo sapiens, UniProt P27361)
UniProt P27361, sequence (whole entry, looked up): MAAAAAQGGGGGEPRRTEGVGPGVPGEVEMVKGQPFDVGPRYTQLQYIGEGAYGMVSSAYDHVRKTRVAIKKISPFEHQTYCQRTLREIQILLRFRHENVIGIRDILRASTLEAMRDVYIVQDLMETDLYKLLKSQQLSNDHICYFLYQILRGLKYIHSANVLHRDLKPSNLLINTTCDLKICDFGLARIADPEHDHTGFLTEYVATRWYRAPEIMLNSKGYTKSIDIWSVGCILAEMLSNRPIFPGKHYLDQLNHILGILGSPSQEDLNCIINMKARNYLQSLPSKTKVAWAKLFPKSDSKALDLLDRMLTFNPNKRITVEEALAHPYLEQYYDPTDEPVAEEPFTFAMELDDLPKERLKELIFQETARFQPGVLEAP
Read-out: enzyme activity
Mode: inhibitor
Concentration: 0.5 µM
Baseline: control
SMILES	remaining activity
COc1ccc(OC)c2c(=S)c3ccccc3[nH]c12	103%
COc1ccc(CNC(=O)Nc2ncc([N+](=O)[O-])s2)cc1	103%
O=C(Nc1cccc(Nc2cc(Nc3cccc(C(F)(F)F)c3)ncn2)c1)C1CC1	101%
C#Cc1cccc(Nc2ncnc3cc(OCCOC)c(OCCOC)cc23)c1	101%
O=S(=O)(c1cccc2cnccc12)N1CCCNCC1	96.1%
Cn1sc(=O)n(Cc2ccccc2)c1=O	90.4%
Cc1nc(-c2ccccc2)c(-c2ccncc2)o1	103%
O=c1c2ccccc2[nH]c(=S)n1CCN1CCC(=C(c2ccc(F)cc2)c2ccc(F)cc2)CC1	105%
CO[C@H]1C[C@@H]2CC[C@@H](C)[C@@](O)(O2)C(=O)C(=O)N2CCCC[C@H]2C(=O)O[C@H]([C@H](C)C[C@@H]2CC[C@@H](O)[C@H](OC)C2)CC(=O)[C@H](C)/C=C(\C)[C@@H](O)[C@@H](OC)C(=O)[C@H](C)C[C@H](C)/C=C/C=C/C=C/1C	104%
CC(C)[C@H](CO)Nc1nc(Nc2cc(N)cc(Cl)c2)c2ncn(C(C)C)c2n1	106%
O=C(CCCc1ccc(-c2ccccc2F)cc1)Nc1ccc(O)cc1	132%
O=C1NC(=O)C(c2cn(CCCO)c3ncccc23)=C1c1cnccn1	94.5%
Nc1[nH]nc2nc3ccccc3nc12	113%
Nc1ncnc2n[nH]c(Nc3ccc(F)cc3)c12	105%
COc1cc2ncnc(Nc3ccc(F)c(Cl)c3)c2cc1OCCCN1CCOCC1	100%
